Measured values pooled from the literature.
Numbered parts are unrelated; each lists some results of a single study. Numbers after ± are the reported error.
UniProt P9WPP7, sequence (whole entry, looked up): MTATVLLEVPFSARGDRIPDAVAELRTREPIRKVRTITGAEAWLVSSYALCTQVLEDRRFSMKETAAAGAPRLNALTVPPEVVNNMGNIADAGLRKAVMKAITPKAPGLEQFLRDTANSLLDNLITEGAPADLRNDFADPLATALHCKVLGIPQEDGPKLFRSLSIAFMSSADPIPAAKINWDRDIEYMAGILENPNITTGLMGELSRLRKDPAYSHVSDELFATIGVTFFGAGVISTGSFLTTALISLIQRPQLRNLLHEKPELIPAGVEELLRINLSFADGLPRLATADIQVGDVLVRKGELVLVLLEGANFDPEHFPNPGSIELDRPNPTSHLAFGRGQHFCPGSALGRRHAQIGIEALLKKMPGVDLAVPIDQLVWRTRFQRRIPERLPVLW

Series 1 — effect on: enzyme activity; action: inhibitor; concentration: 20 µM
Target: Replicase polyprotein 1ab, main protease (rep, Severe acute respiratory syndrome coronavirus 2, UniProt P0DTD1)
The inhibition of `O=C1C(=Cc2cccnc2)C(=O)c2ccccc21` is reported as 60.4%.
`CC(=O)[O][Pt]([NH2])([Cl])([Cl])([NH]C1CCCCC1)[O]C(C)=O` has an inhibition of 95.9%.
For `Cc1ccccc1N(C)C(=O)c1ccc([S+]([O-])c2nccs2)c([N+](=O)[O-])c1` (stereo not drawn), the inhibition was 73.8%.

Series 2 — cell line: HEK-293T/ACE2; effect on: pseudovirus infection; organism: VSV pseudotyped with SARS-CoV-2 spike; concentration: concentration not given; reference: vehicle-treated
The GFP-positive cells of `CC1(C)CCC(CN2CCN(c3ccc(C(=O)NS(=O)(=O)c4ccc(NCC5CCOCC5)c([N+](=O)[O-])c4)c(Oc4cnc5[nH]ccc5c4)c3)CC2)=C(c2ccc(Cl)cc2)C1` is reported as 4.48%.
For `CC[C@H](Nc1ncnc2[nH]cnc12)c1nc2cccc(F)c2c(=O)n1-c1ccccc1`, the GFP-positive cells was 68.2%.
For `CNC(=O)c1cnn(-c2nc(N)c3ncn([C@@H]4O[C@H](CO)[C@@H](O)[C@H]4O)c3n2)c1`, the GFP-positive cells was 82.5%.

Series 3 — effect on: helicase activity; action: inhibitor; concentration: 20 µM
Target: Replicase polyprotein 1ab, nsp13 helicase (rep, Severe acute respiratory syndrome coronavirus 2, UniProt P0DTD1)
`CC(C)[C@]12O[C@H]1[C@@H]1O[C@]13[C@]1(O[C@H]1C[C@H]1C4=C(CC[C@@]13C)C(=O)OC4)[C@@H]2O` has an inhibition of 2.13%.
For `Cc1cn([C@H]2C[C@H](N=[N+]=[N-])[C@@H](CO)O2)c(=O)[nH]c1=O`, the inhibition was 1.15%.
`CC(C)(C)NC(=O)N[C@H](C(=O)N1C[C@H]2[C@@H]([C@H]1C(=O)NC(CC1CCC1)C(=O)C(N)=O)C2(C)C)C(C)(C)C` (stereo partly drawn) gave an inhibition of -5.73%.
`CCN(CC)C(C)C(=O)c1ccccc1` (stereo not drawn) has an inhibition of 0.92%.
`CCN(CCO)CCCC(C)Nc1ccnc2cc(Cl)ccc12` (stereo not drawn) has an inhibition of 8.87%.
The inhibition of `Nc1ccncc1` is reported as -0.47%.
`C[C@H]1C[C@H]2[C@@H]3CCC4=CC(=O)C=C[C@]4(C)[C@@]3(F)[C@@H](O)C[C@]2(C)[C@@]1(O)C(=O)CO` has an inhibition of 4.49%.
The inhibition of `CCCC[C@@H](C=O)NC(=O)[C@H](CC(C)C)NC(=O)OCc1ccccc1` is reported as 3.97%.
For `COc1ccc2c(c1)c(CC(=O)O)c(C)n2C(=O)c1ccc(Cl)cc1`, the inhibition was 0.45%.
`Cc1cc(C(C#N)c2ccc(Cl)cc2)c(Cl)cc1NC(=O)c1cc(I)cc(I)c1O` (stereo not drawn) gave an inhibition of 8.27%.
The inhibition of `COc1cc(CNC(=O)CCCC/C=C/C(C)C)ccc1O` is reported as 0.6%.
`CC(=O)[C@@]1(O)CC[C@H]2[C@@H]3C[C@H](C)C4=CC(=O)C=C[C@]4(C)[C@@]3(F)[C@@H](O)C[C@@]21C` has an inhibition of -1.3%.
With `CC(C)COCC(CN(Cc1ccccc1)c1ccccc1)N1CCCC1` (stereo not drawn) the inhibition was 4.45%.
`O=C(NN1C(=O)[C@@H]2[C@@H]3C=C[C@@H]([C@H]4C[C@@H]34)[C@@H]2C1=O)c1ccc(C(F)(F)F)cc1` has an inhibition of 1.45%.
For `CCOC(=O)C1=C[C@@H](OC(CC)CC)[C@H](NC(C)=O)[C@@H](N)C1`, the inhibition was 5.65%.
`Cc1nnc(C(=O)NC(C)(C)c2nc(C(=O)NCc3ccc(F)cc3)c(O)c(=O)n2C)o1` has an inhibition of 3.75%.
For `CC(C)NCC(O)COc1cccc2[nH]ccc12` (stereo not drawn), the inhibition was 0.26%.
`CCCCCCNC(=O)n1cc(F)c(=O)[nH]c1=O` gave an inhibition of 4.14%.
`Nc1ncnc2c1ncn2[C@@H]1O[C@H](COP(=O)(O)OP(=O)(O)OP(=O)(O)O)[C@@H](O)[C@H]1O` gave an inhibition of 9.31%.

Single results of other studies
gag capsid C-terminal domain: Gag polyprotein, capsid C-terminal domain (gag, UniProt P12493)
Spike glycoprotein: Spike glycoprotein (Severe acute respiratory syndrome coronavirus 2, UniProt P0DTC2)
`COC(=O)[C@H]1[C@H]2C[C@@H]3c4[nH]c5cc(OC)ccc5c4CCN3C[C@H]2C[C@@H](OC(=O)c2cc(OC)c(OC)c(OC)c2)[C@@H]1OC` has an EC50 of > 50.1 µM (SARS-CoV-2; viral replication, high-content imaging screen; cell-based).
`COc1ccc(C[C@@H]2c3cc(Oc4cc(C[C@@H]5c6cc(O)c(OC)cc6CCN5C)ccc4O)c(OC)cc3CCN2C)cc1` gave a mean inhibition of 0% (SARS-CoV-2; viral cytopathic effect; Vero E6; 0.7812 µM).
The Kd of `CC[C@H](C)[C@H](N)C(=O)N[C@H](C(=O)N[C@@H](Cc1ccccc1)C(=O)N[C@H]1CSc2c(F)c(F)c(c(F)c2F)SC[C@@H](C(=O)N[C@@H](Cc2ccc(O)cc2)C(=O)N[C@@H](Cc2ccc(O)cc2)C(=O)NCC(=O)N[C@@H](CCCCN)C(=O)N[C@@H](CCCCN)C(=O)N[C@@H](CCCCN)C(N)=O)NC(=O)[C@H](CC(C)C)NC(=O)[C@H](CC(C)C)NC(=O)[C@H](CC(=O)O)NC1=O)[C@@H](C)O` is reported as 12 ± 0.6 µM (gag capsid C-terminal domain; binding, biolayer interferometry; PBS; pH 7.4, 30 °C, biotinylated peptide immobilised, together with: C-CA 5 to 100 µM).
With `O=C(Nc1ccc(Cl)c(-c2nc3ncccc3o2)c1)c1cccc(OCc2ccccc2)c1` the EC50 was > 50 µM (HEK293T; pseudovirus entry; SARS-CoV spike pseudotyped HIV-1; 72 h).
With `COc1cc(O)c(CC=C(C)C)c2c1C(=O)CC(c1ccc(O)cc1)O2` (stereo not drawn) the kon was 1790 M⁻¹ s⁻¹ (Spike glycoprotein; binding, BLI).
With `CC(C)(C)NCC(O)COc1cccc2c1CCC(=O)N2` (stereo not drawn) the ΔTm was 0 °C (Spike glycoprotein; nanoDSF; spike RBD in PBS; 5 µM, pH 7.4, RBD 100 µM).
`CC[C@H](C)[C@H](N)C(=O)N[C@H](C(=O)N[C@@H](Cc1ccccc1)C(=O)N[C@H]1CSc2ccc(cc2)-c2ccc(cc2)SC[C@@H](C(=O)N[C@@H](Cc2ccc(O)cc2)C(=O)N[C@@H](Cc2ccc(O)cc2)C(=O)NCC(=O)N[C@@H](CCCCN)C(=O)N[C@@H](CCCCN)C(=O)N[C@@H](CCCCN)C(N)=O)NC(=O)[C@H](CC(C)C)NC(=O)[C@H](CC(C)C)NC(=O)[C@H](CC(=O)O)NC1=O)[C@@H](C)O` has a Kd of 61 ± 35 µM (gag capsid C-terminal domain; binding, biolayer interferometry; PBS; pH 7.4, 30 °C, biotinylated peptide immobilised, together with: C-CA 5 to 100 µM).
The EC50 of `Cc1cc(/C=C/C#N)cc(C)c1-n1cnc2cnc(Nc3ccc(/C=C/C#N)cc3)nc21` is reported as > 0.007 µM (HIV-1; viral replication, single-round infection; RT mutant D67E).
The EC50 of `C=C1CC[C@@H]2[C@](C)(CO)[C@H](O)CC[C@@]2(C)[C@@H]1C/C=C1/C(=O)OC[C@H]1O` is reported as > 100 µM (SARS-CoV-2; viral replication, high-content imaging screen; cell-based).
`CC[C@H](C)[C@H](NC(=O)[C@H](CC(C)C)NC(=O)[C@H](Cc1c[nH]c2ccccc12)NC(=O)[C@H](CCC(N)=O)NC(=O)[C@@H](NC(=O)[C@H](Cc1ccccc1)NC(=O)[C@H](C)NC(=O)[C@H](CCCCNC(=O)COCCOCCNC(=O)COCCOCCNC(=O)CC[C@H](NC(=O)CCCCCCCCCCCCCCCCCCC(=O)O)C(=O)O)NC(=O)[C@H](CCC(N)=O)NC(=O)[C@H](C)NC(=O)[C@@H](NC(=O)[C@H](CCCCN)NC(=O)[C@H](CC(=O)O)NC(=O)[C@H](CC(C)C)NC(=O)C(C)(C)NC(=O)[C@@H](NC(=O)[C@H](CO)NC(=O)[C@H](Cc1ccc(O)cc1)NC(=O)[C@H](CC(=O)O)NC(=O)[C@H](CO)NC(=O)[C@@H](NC(=O)[C@H](Cc1ccccc1)NC(=O)[C@@H](NC(=O)CNC(=O)[C@H](CCC(=O)O)NC(=O)C(C)(C)NC(=O)[C@@H](N)Cc1ccc(O)cc1)[C@@H](C)O)[C@@H](C)O)[C@@H](C)CC)[C@@H](C)CC)C(C)C)C(=O)N[C@@H](C)C(=O)NCC(=O)NCC(=O)N1CCC[C@H]1C(=O)N[C@@H](CO)C(=O)N[C@@H](CO)C(=O)NCC(=O)N[C@@H](C)C(=O)N1CCC[C@H]1C(=O)N1CCC[C@H]1C(=O)N1CCC[C@H]1C(=O)N[C@@H](CO)C(N)=O` — result for “subjects with adverse event”: 0% (measured: treatment-emergent catheter site bruise; healthy subjects; 1.5 mg, multiple ascending dose).
With `Cc1cc(/C=C/C#N)cc(C)c1Nc1nc(Nc2ccc(/C=C/C#N)cc2)ncc1N` the EC50 was 0.0008 ± 0.0001 µM (HIV-1; viral replication, single-round infection; RT mutant E40K).
The Hill slope of `CCOC(=O)c1c(NC(=O)c2cc3ccccc3o2)sc(C)c1C` is reported as 1.08 ± 0.06 (Replicase polyprotein 1ab, nsp14 N7-methyltransferase (rep, Severe acute respiratory syndrome coronavirus 2, UniProt P0DTD1); N7-methyltransferase activity, inhibitor, Py-FLINT).
`COc1ccc(-c2nc3ccccc3nc2-c2ccccc2)cc1` has an IC50 of 19.7 µM (Severe acute respiratory syndrome coronavirus 2; viral entry, inhibitor; pseudovirus).
For `C=CC(c1ccc(-c2ccc3cc(OC)ccc3c2)cc1)n1ccnc1` (stereo not drawn), the Kd was 0.8 µM (cyp121 (Mycobacterium tuberculosis, UniProt P9WPP7); binding).
